Measurements collected from several papers.
Lines come from different studies, so protocols differ. Values joined by “and” are separate records of one study, mostly repeats; a detail may differ. Numbers after ± are the reported error.
Chain of UniProt P35916 (whole entry, looked up): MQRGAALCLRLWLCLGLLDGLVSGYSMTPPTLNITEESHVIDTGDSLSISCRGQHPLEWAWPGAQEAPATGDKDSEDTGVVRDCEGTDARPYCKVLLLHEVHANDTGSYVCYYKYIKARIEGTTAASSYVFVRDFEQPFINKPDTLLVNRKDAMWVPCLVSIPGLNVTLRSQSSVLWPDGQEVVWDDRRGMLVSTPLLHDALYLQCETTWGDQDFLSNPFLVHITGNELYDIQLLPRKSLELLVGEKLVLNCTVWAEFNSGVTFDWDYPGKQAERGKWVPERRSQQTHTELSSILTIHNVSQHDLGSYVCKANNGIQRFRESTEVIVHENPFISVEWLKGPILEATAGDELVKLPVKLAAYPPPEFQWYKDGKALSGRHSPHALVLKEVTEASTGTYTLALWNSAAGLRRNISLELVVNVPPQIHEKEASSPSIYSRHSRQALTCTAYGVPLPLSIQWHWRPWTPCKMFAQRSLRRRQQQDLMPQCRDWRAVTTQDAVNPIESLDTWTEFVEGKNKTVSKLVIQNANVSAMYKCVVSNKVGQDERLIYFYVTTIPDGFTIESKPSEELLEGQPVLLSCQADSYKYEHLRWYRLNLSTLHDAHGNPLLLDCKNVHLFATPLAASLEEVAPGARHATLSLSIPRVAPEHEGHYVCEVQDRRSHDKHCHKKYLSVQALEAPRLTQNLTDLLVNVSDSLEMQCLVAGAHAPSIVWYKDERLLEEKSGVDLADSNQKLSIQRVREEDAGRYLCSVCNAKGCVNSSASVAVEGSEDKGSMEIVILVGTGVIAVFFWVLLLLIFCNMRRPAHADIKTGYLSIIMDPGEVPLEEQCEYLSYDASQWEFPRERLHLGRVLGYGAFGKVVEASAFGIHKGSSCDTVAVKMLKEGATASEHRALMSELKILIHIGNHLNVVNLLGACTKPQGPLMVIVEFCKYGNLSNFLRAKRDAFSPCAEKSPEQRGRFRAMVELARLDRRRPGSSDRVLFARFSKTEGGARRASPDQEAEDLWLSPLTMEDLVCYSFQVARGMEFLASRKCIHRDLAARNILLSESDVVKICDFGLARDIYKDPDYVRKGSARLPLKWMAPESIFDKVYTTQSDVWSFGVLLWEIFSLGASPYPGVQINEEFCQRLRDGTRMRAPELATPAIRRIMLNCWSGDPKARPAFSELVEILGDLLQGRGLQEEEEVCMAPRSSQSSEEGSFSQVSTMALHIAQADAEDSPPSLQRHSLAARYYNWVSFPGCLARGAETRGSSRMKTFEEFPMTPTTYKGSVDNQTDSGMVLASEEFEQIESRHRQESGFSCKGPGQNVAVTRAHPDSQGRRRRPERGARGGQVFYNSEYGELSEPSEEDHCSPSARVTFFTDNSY

Compound | target or system | test | system | setting | how to read | measurement | result
Cc1cc(C(=O)Nc2nc3cccc(C)c3n2[C@H]2CCCCN(C(=O)/C=C/CN(C)C)C2)ccn1 | Trypanosoma brucei brucei | – | 2T1 parental | 5 x EC50, 24 h | reference: time 0 h | cell growth | 120% and 100% and 133%
CO[C@H]1/C=C/O[C@@]2(C)Oc3c(C)c(O)c4c(c3C2=O)C2=NC3(CCN(CC(C)C)CC3)NC2=C(NC(=O)/C(C)=C\C=C\[C@H](C)[C@H](O)[C@@H](C)[C@@H](O)[C@@H](C)[C@H](OC(=O)c2cccnc2)[C@@H]1C)C4=O | Mycobacteroides abscessus | – | RFB-R1 rifamycin-resistant | 90% growth inhibition | – | MIC | > 100 µM
Cc1ccc2nc(C)c(C(=O)NCc3ccccc3)n2c1 | Mycobacterium avium | microbial growth | – | 6 days | – | MIC | 15.7 µM
CN[C@@H]1[C@H](O)[C@H](NC)[C@H]2O[C@]3(O)[C@H](O[C@@H]2[C@H]1O)O[C@H](C)C[C@H]3NC(=O)Cc1ccccc1 | Streptococcus pyogenes | microbial growth, broth dilution | ATCC700294 | – | – | MIC | 50 µg/mL
O=C(c1ccccc1O)c1[nH]c(Cl)c(Cl)c1-n1c(C(=O)c2ccccc2O)cc(Cl)c1Cl | Vibrio cholerae | – | El Tor | – | – | MIC | > 64 µM
O=C1NC2(CC2)COc2ncc(F)cc2[C@H]2COCCN2c2ccn3ncc1c3n2 | – | – | Sprague-Dawley rat, male, serum | oral, 5 mg/kg/day, end of treatment, 4-week subacute toxicity | – | serum LDH activity | 654 ± 274 U/L
CN[C@@H]1[C@H](O)[C@H](NC)[C@H]2O[C@]3(O)[C@H](O[C@@H]2[C@H]1O)O[C@H](C)C[C@H]3NC(=O)Cc1ccc(F)cn1 | Proteus vulgaris | microbial growth, broth dilution | ATCC33420 | – | – | MIC | > 200 µg/mL
CS(C)(=O)=Nc1ccc(-c2ccc(-c3nc4cc(O[C@@H]5CO[C@H]6[C@@H]5OC[C@H]6O)[nH]c4cc3F)cc2)cc1 | Vascular endothelial growth factor receptor 3 (FLT4, Homo sapiens, UniProt P35916) | enzyme activity, inhibitor | – | 10 µM | – | inhibition | 8%
CO[C@H]1O[C@H](COC(c2ccccc2)(c2ccccc2)c2ccccc2)[C@@H](OS(=O)(=O)c2ccccc2)[C@H](OS(=O)(=O)c2ccccc2)[C@H]1OS(=O)(=O)c1ccccc1 | Salmonella enterica | microbial growth, broth dilution | TYPHI | – | – | MIC | 1 µg/mL
Cc1ccc(-c2nc3ccc(C)cn3c2CC(=O)NCc2ccc(N(C)C)cc2)cc1 | Mycobacterium kansasii | microbial growth | – | 6 days | – | MIC | 48.1 µM
Nc1ccccc1C(=O)OCC#CCOC(=O)c1ccccc1N | Pichia kudriavzevii | microbial growth, broth dilution | ATCC6258 | – | – | MIC | > 128 µg/mL
CC(C)(C)C(=O)OCOP(=O)(OCOC(=O)C(C)(C)C)C1CCCN(O)C1=O (stereo not drawn) | TK-10 | – | – | – | – | log GI50 | -6.27 log M
CN[C@H](CC(C)C)C(=O)N[C@H]1C(=O)N[C@@H](CC(N)=O)C(=O)N[C@H]2C(=O)N[C@H]3C(=O)N[C@H](C(=O)N[C@H](C(=O)O)c4cc(O)cc(O)c4-c4cc3ccc4O)[C@H](O)c3ccc(c(Cl)c3)Oc3cc2cc(c3O[C@@H]2O[C@H](CO)[C@@H](O)[C@H](O)[C@H]2O[C@H]2C[C@](C)(N)[C@H](O)[C@H](C)O2)Oc2ccc(cc2Cl)[C@H]1O | Salmonella enterica | microbial growth, broth dilution | CHOLERAESUIS | – | – | MIC | 32 µM
Cc1ccc(CNC(=O)C(=O)c2c(C)nc3ccc(C)cn23)cc1 | Mycobacteroides abscessus | – | ATCC 19977 | 72 h | – | MIC | > 128 µM
CCCCCCCCCCCCCCCCCCn1cc(CN(CCC(=O)NCCN(CCC(=O)NCCN(CCC(=O)NCCN(C)C)CCC(=O)NCCN(C)C)CCC(=O)NCCN(CCC(=O)NCCN(C)C)CCC(=O)NCCN(C)C)CCC(=O)NCCN(CCC(=O)NCCN(CCC(=O)NCCN(C)C)CCC(=O)NCCN(C)C)CCC(=O)NCCN(CCC(=O)NCCN(C)C)CCC(=O)NCCN(C)C)nn1 | Vibrio cholerae | LB broth microdilution | – | 18 h | – | MIC | 6 µg/mL
CN[C@@H]1[C@H](O)[C@H](NC)[C@H]2O[C@]3(O)[C@H](O[C@@H]2[C@H]1O)O[C@H](C)C[C@H]3NC(=O)Cc1cscn1 | Streptococcus pyogenes | microbial growth, broth dilution | ATCC700294 | – | – | MIC | 6.25 µg/mL
COc1ccccc1-c1n[nH]c2nc(N[C@H]3CC[C@H](NS(=O)(=O)CC(C)C)CC3)ncc12 | – | bead binding, competition bead pull-down, measured: LMJF.27.0240 | Leishmania donovani extract | 10 µM | reference: vehicle | relative abundance | 1.71
Cc1ccc2nc(C)c(C(=O)C(=O)NCc3ccccc3)n2c1 | Mycobacterium kansasii | microbial growth | – | 6 days | – | MIC | 63.4 µM
CC[C@H](C)[C@H](NC(=O)[C@H](CO)NC(=O)[C@H](Cc1ccc(O)cc1)NC(=O)[C@H](Cc1ccc(O)cc1)NC(=O)[C@H](CC(N)=O)NC(=O)CNC(=O)[C@H](CO)NC(=O)[C@H](Cc1ccc(O)cc1)NC(=O)[C@H](CO)NC(=O)[C@H](CO)NC(=O)[C@H](CC(N)=O)NC(=O)COCCOCCNC(=O)CN1CCN(CC(=O)O)CCN(CC(=O)O)CCN(CC(=O)O)CC1)C(=O)N[C@@H](CC(C)C)C(N)=O [copper-64 labelled] | – | dynamic PET | KPC mouse Ptf1a-CreER tdTomato, metastases | intravenous, 4.6 MBq/mouse, 22.5 min, 84 d after tamoxifen | – | tissue uptake | 13.4 %ID/mL
CN[C@@H]1[C@H](O)[C@H](NC)[C@H]2O[C@]3(O)[C@H](O[C@@H]2[C@H]1O)O[C@H](C)C[C@H]3NC(=O)Cc1ccc(Cl)cn1 | Mycobacteroides abscessus | microbial growth | ATCC19977 | – | – | MIC | 50 to 100 µg/mL
COc1ccccc1-c1n[nH]c2nc(NC3CCN(C(=O)Cc4ccc(F)cc4F)CC3)ncc12 | – | bead binding, competition bead pull-down, measured: LINJ.28.2080 | Leishmania donovani extract | 10 µM | reference: vehicle | relative abundance | 1.07
CO[C@H]1/C=C/O[C@@]2(C)Oc3c(C)c(O)c4c(c3C2=O)C2=NC3(CCN(CC(C)C)CC3)NC2=C(NC(=O)/C(C)=C\C=C\[C@H](C)[C@H](O)[C@@H](C)[C@@H](O)[C@@H](C)[C@H](OC(=O)c2cccc(F)c2)[C@@H]1C)C4=O | Mycobacteroides abscessus | – | RFB-R1 rifamycin-resistant | 90% growth inhibition | – | MIC | > 100 µM
CN(CCO)CCO.O=C(O)C(Cl)Cl | Eleusine indica | – | – | 15 mg/mL, 21 days, pre-emergence, greenhouse | – | herbicidal inhibition | 0%
C#CCNC(=O)C(C)(C)O/N=C(\C(=O)N[C@@H]1C(=O)N(S(=O)(=O)O)[C@H]1C)c1csc(N)n1 | Salmonella enterica | microbial growth, agar dilution | TYPHI | – | – | MIC | 4 µg/mL

For quick reference, copied from above:
Compound | target or system | test | system | setting | how to read | measurement | result
Nc1ccccc1C(=O)OCC#CCOC(=O)c1ccccc1N | Pichia kudriavzevii | microbial growth, broth dilution | ATCC6258 | – | – | MIC | > 128 µg/mL
O=C(c1ccccc1O)c1[nH]c(Cl)c(Cl)c1-n1c(C(=O)c2ccccc2O)cc(Cl)c1Cl | Vibrio cholerae | – | El Tor | – | – | MIC | > 64 µM
COc1ccccc1-c1n[nH]c2nc(NC3CCN(C(=O)Cc4ccc(F)cc4F)CC3)ncc12 | – | bead binding, competition bead pull-down, measured: LINJ.28.2080 | Leishmania donovani extract | 10 µM | reference: vehicle | relative abundance | 1.07
